Results gathered from unrelated publications.
Compare with care: the assays were run in different laboratories. “And” joins repeats or separate records; there may be more than shown. ± marks the error that the study gave.

CC1(C)C(=O)N(c2ccc(C#N)c(C(F)(F)F)c2)C(=S)N1c1ccc(C(=O)O)c(F)c1 — Tmax (healthy male humans, plasma; oral, 160 mg, fasting, soft capsules): 96 ± 40.9 h
CC[C@H](C)[C@H](NC(=O)[C@H](CCCNC(=N)N)NC(=O)[C@H](CCCNC(=N)N)NC(=O)[C@H](CC(C)C)NC(=O)[C@H](Cc1c[nH]c2ccccc12)NC(=O)[C@H](CCCCN)NC(=O)[C@H](CCCNC(=N)N)NC(=O)[C@H](CCCCN)NC(=O)[C@H](CCCNC(=N)N)NC(=O)[C@H](CCCNC(=N)N)NC(=O)CN)C(=O)NCC(=O)N[C@@H](CCCCN)C(=O)NCC(=O)N[C@H](C(=O)N[C@@H](CCCCN)C(=O)N[C@H](C(=O)N[C@H](C(=O)NCC(=O)NCC(=O)N[C@@H](C)C(=O)N[C@@H](C)C(=O)N[C@@H](CC(C)C)C(=O)N[C@@H](CC(=O)O)C(=O)N[C@@H](Cc1c[nH]cn1)C(=O)N[C@@H](CC(C)C)C(N)=O)[C@@H](C)CC)[C@@H](C)CC)C(C)C — chronic toxic concentration (zebrafish embryos 28 hpf, E3 medium; 24 h): 5 µM
CSCC[C@H](N)C(=O)N[C@@H](C)C(=O)N[C@@H](Cc1c[nH]c2ccccc12)C(=O)N[C@@H](Cc1c[nH]cn1)C(=O)N[C@@H](CC(=O)O)C(=O)N[C@@H](CC(=O)O)C(=O)N[C@@H](CCC(=O)O)C(=O)N[C@@H](CCC(=O)O)C(=O)N[C@@H](Cc1ccccc1)C(=O)N[C@@H](C)C(=O)N[C@@H](CCCNC(=N)N)C(=O)N[C@@H](CCCNC(=N)N)C(=O)N[C@@H](CCCNC(=N)N)C(=O)N[C@@H](CCCNC(=N)N)C(=O)NCCCCCC(=O)NCCCCC(NC(=O)CCCCCNC(=O)[C@H](CCCNC(=N)N)NC(=O)[C@H](CCCNC(=N)N)NC(=O)[C@H](CCCNC(=N)N)NC(=O)[C@H](CCCNC(=N)N)NC(=O)[C@H](C)NC(=O)[C@H](Cc1ccccc1)NC(=O)[C@H](CCC(=O)O)NC(=O)[C@H](CCC(=O)O)NC(=O)[C@H](CC(=O)O)NC(=O)[C@H](CC(=O)O)NC(=O)[C@H](Cc1c[nH]cn1)NC(=O)[C@H](Cc1c[nH]c2ccccc12)NC(=O)[C@H](C)NC(=O)[C@@H](N)CCSC)C(=O)NCCCCC(NC(=O)C(CCCCNC(=O)CCCCCNC(=O)[C@H](CCCNC(=N)N)NC(=O)[C@H](CCCNC(=N)N)NC(=O)[C@H](CCCNC(=N)N)NC(=O)[C@H](CCCNC(=N)N)NC(=O)[C@H](C)NC(=O)[C@H](Cc1ccccc1)NC(=O)[C@H](CCC(=O)O)NC(=O)[C@H](CCC(=O)O)NC(=O)[C@H](CC(=O)O)NC(=O)[C@H](CC(=O)O)NC(=O)[C@H](Cc1c[nH]cn1)NC(=O)[C@H](Cc1c[nH]c2ccccc12)NC(=O)[C@H](C)NC(=O)[C@@H](N)CCSC)NC(=O)CCCCCNC(=O)[C@H](CCCNC(=N)N)NC(=O)[C@H](CCCNC(=N)N)NC(=O)[C@H](CCCNC(=N)N)NC(=O)[C@H](CCCNC(=N)N)NC(=O)[C@H](C)NC(=O)[C@H](Cc1ccccc1)NC(=O)[C@H](CCC(=O)O)NC(=O)[C@H](CCC(=O)O)NC(=O)[C@H](CC(=O)O)NC(=O)[C@H](CC(=O)O)NC(=O)[C@H](Cc1c[nH]cn1)NC(=O)[C@H](Cc1c[nH]c2ccccc12)NC(=O)[C@H](C)NC(=O)[C@@H](N)CCSC)C(N)=O (some centres unmarked) — tissue distribution (C57BL/6 mouse female, uterus; dose not given, 6 h; baseline: total): 2.05% and 1.21% and 1.31%
C=C/C=C/C[C@@H](C)[C@@H](O)[C@H]1C(=O)N[C@@H](CC)C(=O)N(C)CC(=O)N(C)[C@@H](CC(C)C)C(=O)N[C@@H](C(C)C)C(=O)N(C)[C@@H](CC(C)C)C(=O)N[C@@H](C)C(=O)N[C@H](C)C(=O)N(C)[C@@H](CC(C)C)C(=O)N(C)[C@@H](CC(C)C)C(=O)N(C)[C@@H](C(C)C)C(=O)N1C — plasma HCO3− level (Wistar Kyoto rat, male, plasma; ip, 0.5 mg/kg/day, day 18): 24.2 ± 0.7 mmol/L
N#[11C]c1ccc(-c2csc(NN=C3CCCC3)n2)cc1 — uptake in large intestine with contents (C57BL/6 mouse, male; intravenous, 3 MBq, 5 min): 2.1 ± 0.71 %ID/g
COC(=O)[C@H]1[C@@H](c2ccc(Cl)cc2)C[C@@H]2CC[C@H]1N2Cc1ccc2cc3ccccc3cc2c1 — pKa (fluorometric titration; 1 µM, 10% DMSO): 5.4
CN1Cc2cc(Cl)ccc2-n2c(nnc2C2CCN(c3cccc([18F])n3)CC2)C1 — tissue uptake (C57BL/6 mouse male, pancreas; intravenous, 3.7 MBq, 15 min): 6.86 ± 1.37 %ID/g
N=C(N)NCCC[C@@H](NC(=O)[C@H](N)Cc1c[nH]c2ccccc12)C(=O)N[C@H](CCCCN)C(=O)N[C@H](Cc1c[nH]c2ccccc12)C(=O)N[C@H](CCCNC(=N)N)C(=O)N[C@H](CCCCN)C(=O)N[C@H](Cc1c[nH]c2ccccc12)C(=O)N[C@H](CCCNC(=N)N)C(=O)N[C@H](CCCCN)C(=O)N[C@H](Cc1c[nH]c2ccccc12)C(=O)N[C@H](CCCNC(=N)N)C(=O)N[C@H](CCCCN)C(N)=O — cystatin C level (mouse, urine; 30 mg/kg): 26.4 ng/mL
CCc1nn(C)c2nc(-c3ccc(C(=O)O)cc3)nc(NCc3ccccc3)c12 — logP: 5.29
C=Cc1c(C)c2cc3nc(c(CC(=O)[O-])c4[n-]c(cc5nc(cc1[n-]2)C(C)=C5CC)c(C)c4C(=O)[O-])C(CCC(=O)[O-])C3C.[Cu+2].[Na+].[Na+].[Na+] (centres unmarked) — serum cholesterol (Wistar rat, male; oral, 1000 mg/kg daily, 28 days): 38.8 ± 10.1 mg/dL
CC(C)Oc1c(NC(=O)c2ccc(NC(=O)[C@H](CC(N)=O)NC(=O)c3ccc(/N=N/c4ccccc4)cc3)cc2)ccc(C(=O)Nc2ccc(C(=O)O)cc2)c1O — thermal relaxation half-life (absorbance kinetics; 35 °C, photostationary to ground state): 19.3 h
C[C@H](O)[C@@H](NC(=O)[C@H]1CCCN1C(=O)[C@@H](CCCCN)NC(=O)[C@@H](CO)NC(=O)[C@@H](Cc1ccc(O)cc1)NC(=O)[C@@H](CC(N)=O)NC(=O)CCOCCOCCOCCNC(=O)CN1CCN(CC(=O)O)CCN(CC(=O)O)CCN(CC(=O)O)CC1)C(=O)N[C@H](CC(=O)O)C(=O)N[C@H](CCCNC(=N)N)C(=O)N[C@H](CCC(N)=O)C(=O)N[C@H](Cc1ccc(O)cc1)C(=O)N[C@H](Cc1c[nH]cn1)C(=O)N[C@H](Cc1ccccc1)C(N)=O [gallium-68 labelled] — tissue uptake (BALB/c nude mice U-87 MG tumour, tumor; intravenous, 1.85 MBq, 0.5 h, radiolabelled): 3.77 ± 0.27 %ID/g
COc1cnc2cccc(N3CCc4c(cc(Cn5ccnc5)cc4-c4cn(C)nc4C(F)(F)F)C3=O)c2c1 — body weight change (CD-1 mouse; intraperitoneal, 100 mg/kg once daily, day 5, dose-escalation tolerability; baseline: day 1): 10.4%
O=C1NC2(CC2)COc2ncc(F)cc2[C@H]2COCCN2c2ccn3ncc1c3n2 — organ-to-brain weight ratio (Sprague-Dawley rat, female, spleen; oral, 5 mg/kg/day, 4 weeks, end of treatment): 56 ± 9.29%
CC[C@H](C)[C@H](NC(=O)[C@H](CCCCN)NC(=O)CNC(=O)[C@H](CC(C)C)NC(=O)[C@H](Cc1ccccc1)NC(=O)[C@H](CCCCN)NC(=O)[C@H](CO)NC(=O)[C@H](Cc1ccccc1)NC(=O)[C@H](Cc1c[nH]c2ccccc12)NC(=O)[C@H](CCC(N)=O)NC(=O)[C@@H](NC(=O)[C@H](Cc1ccccc1)NC(=O)CCCCCNC(=O)CN1CCN(CC(=O)O)CCN(CC(=O)O)CCN(CC(=O)O)CC1)C(C)C)C(=O)N[C@@H](CCC(=O)O)C(=O)N1CCC[C@H]1C(=O)N[C@@H](CC(=O)O)C(=O)N[C@H](C(=O)N[C@@H](CO)C(=O)N[C@@H](CCC(N)=O)C(=O)N[C@H](C(=O)N[C@@H](CCC(N)=O)C(=O)N[C@@H](CC(=O)O)C(=O)N1CCC[C@H]1C(=O)N[C@@H](CC(N)=O)C(=O)N[C@@H](CC(=O)O)C(=O)N[C@@H](CCC(N)=O)C(=O)N[C@@H](Cc1ccc(O)cc1)C(=O)N[C@@H](CCC(=O)O)C(=O)N1CCC[C@H]1C(=O)N[C@@H](Cc1ccccc1)C(=O)O)C(C)C)C(C)C [copper-64 labelled] — tissue uptake (C57BL/6 male mouse, tumour-naive, bone; 1 h): 1.45 ± 0.3 %ID/g
CCCCCCCCCC(=O)N[C@@H](CCCNC(=N)N)C(=O)N[C@@H](Cc1c[nH]c2ccccc12)C(=O)N[C@@H](CCCCN)C(=O)N[C@H](C(=O)N[C@@H](Cc1ccccc1)C(=O)N[C@@H](CCCCN)C(=O)N[C@@H](CCCCN)C(=O)N[C@H](C(=O)N[C@@H](CCC(=O)O)C(=O)N[C@@H](CCCCN)C(=O)N[C@H](C(=O)NCC(=O)N[C@@H](CCC(N)=O)C(=O)N[C@@H](CC(N)=O)C(=O)N[C@H](C(=O)N[C@@H](CCCNC(=N)N)C(=O)N[C@@H](CC(=O)O)C(=O)NCC(=O)N[C@H](C(=O)N[C@H](C(=O)N[C@@H](CCCCN)C(=O)N[C@@H](C)C(=O)NCC(=O)N1CCC[C@H]1C(=O)N[C@@H](C)C(=O)N[C@H](C(=O)N[C@@H](C)C(=O)N[C@H](C(=O)N[C@H](C(=O)NCC(=O)N[C@@H](CCC(N)=O)C(=O)N[C@@H](C)C(=O)N[C@@H](C)C(=O)N[C@H](C(=O)N[C@H](C(N)=O)[C@@H](C)CC)[C@@H](C)O)C(C)C)C(C)C)C(C)C)C(C)C)[C@@H](C)CC)[C@@H](C)CC)C(C)C)[C@@H](C)CC)[C@@H](C)CC — helical content (CD spectroscopy; 50% TFE in water; room temperature): 41.7%
CCn1ccc(-c2cc(-c3cnn(C)c3)cc([C@@H](C)NC(=O)c3cc(OCCN(C)C)ccc3C)c2)n1 — AUC(0-t) (C57BL/6J mice, male, plasma; iv, 10 mg/kg): 6250 ng·h/mL

Repeated from above:
C=C/C=C/C[C@@H](C)[C@@H](O)[C@H]1C(=O)N[C@@H](CC)C(=O)N(C)CC(=O)N(C)[C@@H](CC(C)C)C(=O)N[C@@H](C(C)C)C(=O)N(C)[C@@H](CC(C)C)C(=O)N[C@@H](C)C(=O)N[C@H](C)C(=O)N(C)[C@@H](CC(C)C)C(=O)N(C)[C@@H](CC(C)C)C(=O)N(C)[C@@H](C(C)C)C(=O)N1C — plasma HCO3− level (Wistar Kyoto rat, male, plasma; ip, 0.5 mg/kg/day, day 18): 24.2 ± 0.7 mmol/L
